Measurements pooled from the literature.
Each line is one published result; not all experiments were run side by side. ± gives the spread as reported.

CC/C=C\C/C=C\C/C=C\C/C=C\C/C=C\C/C=C\CCC(=O)Nc1ccn(C2OC(CO)C(O)C2(F)F)c(=O)n1 (stereo not drawn)
CC50 (OVCAR-5; NCI60 screen): 63.8 µM

[O-][N+]1=C(c2ccccc2)C2=NCCCN2c2ncccc21
MIC (Porphyromonas sp.): ≤ 0.06 µg/mL

O=C1C[C@@H](c2ccc(O)cc2)Oc2cc(O)ccc21
hind paw volume (Sprague-Dawley rat, Freund's adjuvant arthritis; oral, 10 mg/kg, 2 h, with: aconitine 1 mg/kg): 1.81 ± 0.04 mL

CCN(CC)Cc1cc(Nc2c(C3CCCC3)c(C)nc3cc(Cl)ccc23)ccc1O
inhibition (dengue virus type 2; replicon replication, luciferase reporter; BHK-21 DENV2 Rluc replicon; 50 µM, 24 h): inhibited

CN[C@@H]1[C@H](O)[C@H](NC)[C@H]2O[C@]3(O)[C@H](O[C@@H]2[C@H]1O)O[C@H](C)C[C@@]3(O)CNCc1ccc(Cl)cc1
MIC (Streptococcus pyogenes; ATCC 700294): 0.8 to 1.6 µg/mL

CN(C)CC1CCCCC1(O)c1cccc(O)c1 (stereo not drawn)
Papp B-to-A (human P-glycoprotein; Caco-2 TC7 monolayer; 50 µM, 3 h, apical pH 7.4, basolateral pH 7.4, with: cyclosporine A 10 µM): 20.1 ± 2.4 ×10⁻⁶ cm/s

CN[C@@H]1[C@H](O)[C@H](NC)[C@H]2O[C@]3(O)[C@H](O[C@@H]2[C@H]1O)O[C@H](C)C[C@@]3(O)CNCCc1ccc(F)cc1
MIC (Mycobacteroides abscessus; ATCC 19977 ∆whiB7 ∆tap; 120 h): 2 µg/mL

[O-][N+]1=C(c2ccc(Cl)cc2)C2=NCCCCN2c2ccccc21
MIC (Porphyromonas sp.): 0.25 µg/mL

CN1C(=O)[C@@H]2NC(=O)[C@@H]3NC(=O)[C@@H](c4ccc(O)cc4)NC(=O)[C@H](NC(=O)C(NCc4ccccn4)c4ccc(O)cc4)Cc4c[nH]c5cc(ccc45)-c4cc3cc(c4O)Oc3ccc(cc3)C[C@H]1C(=O)N[C@@H](C(=O)O)c1ccc(O)c(c1)Oc1ccc2cc1 (stereo partly drawn)
MIC (Enterococcus faecium; brain heart infusion medium): 16 µg/mL

CN[C@](C)(C[18F])C(=O)O
tracer uptake (SK-OV-3 tumour model; host not given, heart; 30 min, tumour-bearing): 3.2 %ID/g

CCCCCCCCCCCCCC(=O)N[C@H](CCN)C(=O)N[C@H](C(=O)N[C@H]1CCNC(=O)[C@H](CC(=O)O)NC(=O)[C@H](C(C)C)NC(=O)[C@@H](Cc2ccc(O)cc2)NC(=O)[C@H](CCN)NC(=O)[C@H](CC(C)C)NC(=O)[C@@H](Cc2ccccc2)NC(=O)[C@H](CCN)NC(=O)[C@H](CC(C)C)NC1=O)[C@@H](C)O
MIC (Enterobacter cloacae; broth microdilution; BNCC 185028): 64 µg/mL

COC1C=COC2(C)Oc3c(C)c(O)c4c(c3C2=O)C2=NC3(CCN(CC(C)C)CC3)NC2=C(NC(=O)C(C)=CC=CC(C)C(O)C(C)C(O)C(C)C(OC(=O)c2cncnc2)C1C)C4=O (stereo not drawn)
MIC (Mycobacteroides abscessus; ATCC 19977 arr knockout): 0.033 µM

CN(C)CCCNC(=O)[C@@H]1NC(=O)[C@@H]2Cc3ccc(cc3)Oc3cc4cc(c3O)-c3ccc5c(c[nH]c5c3)C[C@@H](NC(=O)C(NC(=O)CCCCCN)c3ccc(O)cc3)C(=O)N[C@H](c3ccc(O)cc3)C(=O)N[C@H]4C(=O)N[C@@H](C(=O)N2C)c2ccc(cc2)Oc2cc1ccc2O (stereo partly drawn)
MIC (Enterococcus faecium; WCC 0558, VRE-B, BHI medium): 1 to 2 µg/mL

CCC(C)C(=O)OC1C(C)C(OC)C=COC2(C)Oc3c(C)c(O)c4c(c3C2=O)C2=NC3(CCN(CC(C)C)CC3)NC2=C(NC(=O)C(C)=CC=CC(C)C(O)C(C)C(O)C1C)C4=O (mixture of isomers)
MIC (Mycobacteroides abscessus; ATCC 19977 arr deletion; 90% growth inhibition): 0.028 µM

Cc1cccc(C)c1SCC1OC(OC2C(N)CC(N)C(OC3OC(CN)C(O)CC3N)C2O)C(O)C(N)C1O (stereo not drawn)
MIC (Bacillus cereus; ATCC 11778): 37.5 µg/mL
